# Measured values from different studies.
# A part holds a random share of what one study measured. “And” joins repeats or separate records; there may be more than shown.
# UniProt Q96SB4, sequence (whole entry, looked up): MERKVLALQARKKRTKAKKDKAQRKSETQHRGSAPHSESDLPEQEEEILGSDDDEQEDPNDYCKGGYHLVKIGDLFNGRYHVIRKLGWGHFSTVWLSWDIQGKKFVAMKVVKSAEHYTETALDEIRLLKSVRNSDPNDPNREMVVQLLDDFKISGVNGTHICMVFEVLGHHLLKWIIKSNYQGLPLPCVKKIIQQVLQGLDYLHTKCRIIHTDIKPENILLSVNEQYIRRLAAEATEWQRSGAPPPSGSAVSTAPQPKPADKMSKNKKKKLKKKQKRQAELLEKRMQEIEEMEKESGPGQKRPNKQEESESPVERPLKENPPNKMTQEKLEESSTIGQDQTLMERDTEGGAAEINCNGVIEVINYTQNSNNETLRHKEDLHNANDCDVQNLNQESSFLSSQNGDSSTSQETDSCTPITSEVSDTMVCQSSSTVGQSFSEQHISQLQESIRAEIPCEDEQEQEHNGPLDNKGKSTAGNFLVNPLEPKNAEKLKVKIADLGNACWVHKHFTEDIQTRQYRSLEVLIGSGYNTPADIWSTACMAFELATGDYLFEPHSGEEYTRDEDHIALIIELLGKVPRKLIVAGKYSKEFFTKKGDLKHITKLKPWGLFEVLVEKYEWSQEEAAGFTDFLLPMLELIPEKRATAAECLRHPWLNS
# UniProt P42336, sequence (whole entry, unmodified, looked up): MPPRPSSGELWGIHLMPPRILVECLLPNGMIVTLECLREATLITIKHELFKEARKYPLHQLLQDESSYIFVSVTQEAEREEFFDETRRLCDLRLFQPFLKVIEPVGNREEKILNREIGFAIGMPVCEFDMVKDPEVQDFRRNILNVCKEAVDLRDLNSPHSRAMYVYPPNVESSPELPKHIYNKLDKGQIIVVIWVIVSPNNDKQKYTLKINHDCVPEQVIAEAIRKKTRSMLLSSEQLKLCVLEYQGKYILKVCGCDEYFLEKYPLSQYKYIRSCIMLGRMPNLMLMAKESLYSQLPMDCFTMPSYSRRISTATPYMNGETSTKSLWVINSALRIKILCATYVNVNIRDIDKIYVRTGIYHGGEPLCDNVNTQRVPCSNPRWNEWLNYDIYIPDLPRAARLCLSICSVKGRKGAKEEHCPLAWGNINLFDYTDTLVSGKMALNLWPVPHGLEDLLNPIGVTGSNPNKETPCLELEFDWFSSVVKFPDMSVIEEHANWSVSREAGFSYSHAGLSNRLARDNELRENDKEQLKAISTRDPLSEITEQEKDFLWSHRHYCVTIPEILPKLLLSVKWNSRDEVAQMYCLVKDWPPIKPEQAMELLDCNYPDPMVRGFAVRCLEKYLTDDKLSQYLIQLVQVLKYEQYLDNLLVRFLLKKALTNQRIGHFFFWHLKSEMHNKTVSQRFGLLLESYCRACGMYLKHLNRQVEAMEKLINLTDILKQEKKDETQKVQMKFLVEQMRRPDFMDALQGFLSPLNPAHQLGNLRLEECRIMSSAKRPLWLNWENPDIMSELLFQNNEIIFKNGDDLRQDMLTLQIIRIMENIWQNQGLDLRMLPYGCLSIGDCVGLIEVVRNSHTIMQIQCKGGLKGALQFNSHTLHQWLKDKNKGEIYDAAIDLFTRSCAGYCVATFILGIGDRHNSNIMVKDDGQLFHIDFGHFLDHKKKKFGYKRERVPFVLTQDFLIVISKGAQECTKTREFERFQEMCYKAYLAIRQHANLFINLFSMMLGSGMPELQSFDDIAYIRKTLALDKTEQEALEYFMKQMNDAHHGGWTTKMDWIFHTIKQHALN
# UniProt P48730, sequence (whole entry, looked up): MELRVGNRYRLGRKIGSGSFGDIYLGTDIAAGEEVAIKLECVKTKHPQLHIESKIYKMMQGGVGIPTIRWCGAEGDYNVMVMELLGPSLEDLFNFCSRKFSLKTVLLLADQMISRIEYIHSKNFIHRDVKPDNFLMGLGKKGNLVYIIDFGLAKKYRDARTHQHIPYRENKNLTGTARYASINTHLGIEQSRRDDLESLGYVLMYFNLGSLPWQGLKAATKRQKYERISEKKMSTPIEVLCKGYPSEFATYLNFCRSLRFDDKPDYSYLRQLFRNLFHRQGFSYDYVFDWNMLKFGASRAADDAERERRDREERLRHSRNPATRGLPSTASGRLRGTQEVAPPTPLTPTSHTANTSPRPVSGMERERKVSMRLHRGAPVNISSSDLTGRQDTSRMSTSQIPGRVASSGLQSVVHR
# UniProt P43403, sequence (whole entry, looked up): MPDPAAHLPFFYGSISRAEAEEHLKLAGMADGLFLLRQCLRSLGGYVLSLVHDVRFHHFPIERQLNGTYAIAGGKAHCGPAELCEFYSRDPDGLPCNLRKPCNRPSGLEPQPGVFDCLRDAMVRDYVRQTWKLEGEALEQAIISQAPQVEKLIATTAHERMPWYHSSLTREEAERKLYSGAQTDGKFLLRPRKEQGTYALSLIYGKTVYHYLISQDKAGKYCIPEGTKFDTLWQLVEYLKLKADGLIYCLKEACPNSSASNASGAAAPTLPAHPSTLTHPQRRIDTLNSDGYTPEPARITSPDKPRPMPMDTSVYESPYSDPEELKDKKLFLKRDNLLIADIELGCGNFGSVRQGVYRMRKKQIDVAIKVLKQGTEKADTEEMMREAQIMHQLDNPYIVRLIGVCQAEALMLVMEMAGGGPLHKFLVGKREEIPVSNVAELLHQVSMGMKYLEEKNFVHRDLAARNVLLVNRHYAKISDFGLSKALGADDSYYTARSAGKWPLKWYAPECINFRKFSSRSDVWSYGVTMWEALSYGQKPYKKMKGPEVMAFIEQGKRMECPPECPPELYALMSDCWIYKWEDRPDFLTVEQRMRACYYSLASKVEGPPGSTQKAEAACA
# UniProt Q9UF33, sequence (whole entry, looked up): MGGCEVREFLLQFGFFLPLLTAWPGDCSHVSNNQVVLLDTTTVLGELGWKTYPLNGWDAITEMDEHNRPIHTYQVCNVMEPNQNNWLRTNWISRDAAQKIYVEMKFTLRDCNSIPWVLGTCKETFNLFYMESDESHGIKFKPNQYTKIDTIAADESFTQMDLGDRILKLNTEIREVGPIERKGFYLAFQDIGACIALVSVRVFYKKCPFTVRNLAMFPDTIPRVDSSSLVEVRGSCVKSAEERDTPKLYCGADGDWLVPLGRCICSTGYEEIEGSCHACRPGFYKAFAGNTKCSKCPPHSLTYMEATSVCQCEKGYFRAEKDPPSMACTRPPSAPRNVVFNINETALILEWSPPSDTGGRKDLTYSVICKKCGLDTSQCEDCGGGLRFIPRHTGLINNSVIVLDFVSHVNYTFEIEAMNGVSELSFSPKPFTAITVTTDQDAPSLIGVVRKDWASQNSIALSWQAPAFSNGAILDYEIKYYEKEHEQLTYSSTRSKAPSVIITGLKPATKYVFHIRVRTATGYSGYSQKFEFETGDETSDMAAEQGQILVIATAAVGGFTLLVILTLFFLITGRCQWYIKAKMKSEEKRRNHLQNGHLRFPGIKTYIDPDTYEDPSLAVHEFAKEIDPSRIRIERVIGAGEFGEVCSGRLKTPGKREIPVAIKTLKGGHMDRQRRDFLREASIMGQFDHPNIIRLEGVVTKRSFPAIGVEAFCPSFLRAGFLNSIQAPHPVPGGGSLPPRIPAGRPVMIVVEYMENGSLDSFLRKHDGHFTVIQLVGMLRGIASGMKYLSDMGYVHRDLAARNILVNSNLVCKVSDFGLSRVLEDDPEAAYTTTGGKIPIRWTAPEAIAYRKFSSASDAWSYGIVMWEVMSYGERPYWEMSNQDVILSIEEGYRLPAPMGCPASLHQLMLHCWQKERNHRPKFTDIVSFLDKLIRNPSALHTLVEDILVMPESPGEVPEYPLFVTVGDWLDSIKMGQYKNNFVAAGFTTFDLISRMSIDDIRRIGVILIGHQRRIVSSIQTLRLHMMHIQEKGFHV
# UniProt P51956, sequence (whole entry, looked up): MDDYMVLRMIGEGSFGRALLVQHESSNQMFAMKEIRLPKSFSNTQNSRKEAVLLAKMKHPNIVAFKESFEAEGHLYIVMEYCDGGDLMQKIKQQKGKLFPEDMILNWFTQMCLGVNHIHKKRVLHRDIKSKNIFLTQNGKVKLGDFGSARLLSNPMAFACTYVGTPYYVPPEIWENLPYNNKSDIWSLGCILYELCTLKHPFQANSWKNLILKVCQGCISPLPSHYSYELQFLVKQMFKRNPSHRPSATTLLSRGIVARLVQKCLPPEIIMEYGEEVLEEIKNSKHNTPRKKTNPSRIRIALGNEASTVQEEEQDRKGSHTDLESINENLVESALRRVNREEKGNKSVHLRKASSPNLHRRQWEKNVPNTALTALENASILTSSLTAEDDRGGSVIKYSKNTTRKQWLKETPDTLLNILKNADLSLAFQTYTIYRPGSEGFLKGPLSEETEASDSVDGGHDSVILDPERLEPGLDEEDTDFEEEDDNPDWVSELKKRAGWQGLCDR
# UniProt P45985, sequence (whole entry, looked up): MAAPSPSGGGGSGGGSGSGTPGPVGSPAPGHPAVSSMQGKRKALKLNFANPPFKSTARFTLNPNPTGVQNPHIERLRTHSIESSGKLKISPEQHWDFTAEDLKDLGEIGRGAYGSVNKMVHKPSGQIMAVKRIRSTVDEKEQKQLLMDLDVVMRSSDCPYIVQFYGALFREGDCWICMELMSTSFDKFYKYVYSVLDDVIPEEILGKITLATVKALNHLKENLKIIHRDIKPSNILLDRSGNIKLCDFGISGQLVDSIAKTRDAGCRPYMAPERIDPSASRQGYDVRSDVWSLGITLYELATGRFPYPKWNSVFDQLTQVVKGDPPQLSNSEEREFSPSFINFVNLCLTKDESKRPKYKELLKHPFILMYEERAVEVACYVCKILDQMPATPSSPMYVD
# UniProt Q8N752, sequence (whole entry, looked up): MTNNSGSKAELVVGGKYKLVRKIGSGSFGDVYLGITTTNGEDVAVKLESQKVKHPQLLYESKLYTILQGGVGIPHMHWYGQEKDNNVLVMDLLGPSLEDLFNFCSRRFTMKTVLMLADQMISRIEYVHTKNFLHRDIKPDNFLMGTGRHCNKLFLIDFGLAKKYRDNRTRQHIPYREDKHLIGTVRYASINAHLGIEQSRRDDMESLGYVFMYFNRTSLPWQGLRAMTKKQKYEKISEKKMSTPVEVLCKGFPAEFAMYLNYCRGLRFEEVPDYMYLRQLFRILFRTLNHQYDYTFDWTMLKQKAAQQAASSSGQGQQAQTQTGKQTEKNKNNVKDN

# Set 1 — read-out: enzyme activity; mode: inhibitor; tested at: 0.5 µM; relative to: control
# Compound: CCCC(=O)Oc1ccc2[nH]c(C(=O)c3cc4ccccc4[nH]3)cc2c1
target,remaining activity [%]
"MUSK (Homo sapiens, UniProt O15146)",79.8
"EPHA6 (Homo sapiens, UniProt Q9UF33)",88
"CSNK1E (Homo sapiens, UniProt P49674)",97.4
"TEC (Homo sapiens, UniProt P42680)",97.8
"CLK2 (Homo sapiens, UniProt P49760)",94.3
"CLK1 (Homo sapiens, UniProt P49759)",99.3
"PRKCQ (Homo sapiens, UniProt Q04759)",111
"FLT1 (Homo sapiens, UniProt P17948)",89.7
"PAK1 (Homo sapiens, UniProt Q13153)",95.8
"PRKCZ (Homo sapiens, UniProt Q05513)",98.3
"CAMK1 (Homo sapiens, UniProt Q14012)",98.8
"SIK2 (Homo sapiens, UniProt Q9H0K1)",97.6
"Cyclin-dependent kinase 2, with cyclin E (CDK2, Homo sapiens, UniProt P24941)",92.1
"SGK2 (Homo sapiens, UniProt Q9HBY8)",99.4
"SRPK1 (Homo sapiens, UniProt Q96SB4)",105
"CAMKK1 (Homo sapiens, UniProt Q8N5S9)",106
"JAK1 (Homo sapiens, UniProt P23458)",104
"MAP3K20 (Homo sapiens, UniProt Q9NYL2)",104
"RPS6KA3 (Homo sapiens, UniProt P51812)",97.5
"CSNK1D (Homo sapiens, UniProt P48730)",96.4
"EPHA2 (Homo sapiens, UniProt P29317)",99
"TYRO3 (Homo sapiens, UniProt Q06418)",101
"PAK6 (Homo sapiens, UniProt Q9NQU5)",94.5
"IGF1R (Homo sapiens, UniProt P08069)",88.3

# Set 2 — cell line: mouse MPNST tumor cells; technique: high-content nuclear imaging; measured: cell number; tested at: 10 µM; time: 12 h; notes: mean of 2 replicates; relative to: plate mean; direction: higher = more cells
SMILES,nuclei count
CC(C(=O)O)c1ccc(C(=O)c2cccs2)cc1 (stereo not drawn),2.01 z-score
CN[C@@H]1[C@@H](O[C@H]2O[C@H](CO)[C@@H](N)[C@H](O)[C@H]2O)OC2C[C@@H](N)[C@@H](O[C@H]3[C@H](O)[C@@H](O)[C@H](N)C[C@@H]3N)OC2[C@@H]1O (stereo partly drawn),4.7 z-score
COC(=O)c1sccc1S(=O)(=O)Nc1ccc(Nc2ccccc2)cc1OC,1.6 z-score
CCC(=O)N1CCOc2c(cc(-c3ccc(OC)c(OC)c3)cc2OC[C@H]2CCCN(C)C2)C1,3.34 z-score and 4.71 z-score
CC1CCc2cc(F)cc3c(=O)c(C(=O)O)cn1c23 (stereo not drawn),1.64 z-score
c1ccc(C(NCCNC(c2ccccc2)c2ccccc2)c2ccccc2)cc1,3 z-score
O=C(O)c1ccc(-c2c[nH]c3ncc(-c4ccccc4)cc23)cc1C1CCCC1,-1.95 z-score
Cc1onc(-c2c(F)cccc2Cl)c1C(=O)N[C@@H]1C(=O)N2[C@@H]1SC(C)(C)[C@@H]2C(=O)O,1.66 z-score
CCOc1ccc(NC(=O)CC(C)O)cc1 (stereo not drawn),-0.0834 z-score
N=C(N)NC(=N)NCCc1ccccc1,0.0795 z-score
CC1(C)CN2C(CSC(=NC3CCCCC3)NC3CCCCC3)=CSC2=N1,-1.28 z-score
COc1cc(C(=O)N(CCC2CCCN2C)C/C(C)=C/c2ccccc2F)cc(OC)c1OC (stereo not drawn),1.8 z-score
O=C(O)c1ccccc1OP(=O)(O)O,0.636 z-score
CCCN[C@H]1CCc2nc(N)sc2C1,1.23 z-score and 0.206 z-score and 1.55 z-score
O=C1CN(/N=C/c2ccc(-c3ccc([N+](=O)[O-])cc3)o2)C(=O)N1,-0.341 z-score and -1.02 z-score
O=C(N[C@H](CO)[C@H](O)c1ccc([N+](=O)[O-])cc1)C(Cl)Cl,2.58 z-score
c1ccc(C(OC2CCN(CCCc3nn[nH]n3)CC2)c2ccccc2)cc1,1.89 z-score

# Set 3 — tested at: 1 µM
# Compound: CN(c1ccnc(CNc2nc(Nc3ccc4c(c3)CC(=O)N4)ncc2C(F)(F)F)n1)S(C)(=O)=O
target,read-out,technique,remaining binding [%]
"CDK19 (Homo sapiens, UniProt Q9BWU1)",,competition binding,84
"MAPK11 (Homo sapiens, UniProt Q15759)",cell-free assay,competition with immobilised ligand,85
"CSNK1A1L (Homo sapiens, UniProt Q8N752)",cell-free assay,competition with immobilised ligand,81
"MET (Homo sapiens, UniProt P08581, Y1235D)",cell-free assay,competition with immobilised ligand,10
"BMP2K (Homo sapiens, UniProt Q9NSY1)",cell-free assay,competition with immobilised ligand,2.3
"CDK17 (Homo sapiens, UniProt Q00537)",cell-free assay,competition with immobilised ligand,85
"MARK4 (Homo sapiens, UniProt Q96L34)",cell-free assay,competition with immobilised ligand,63
"MAP3K4 (Homo sapiens, UniProt Q9Y6R4)",cell-free assay,competition with immobilised ligand,91
"DYRK1B (Homo sapiens, UniProt Q9Y463)",cell-free assay,competition with immobilised ligand,31
"HCK (Homo sapiens, UniProt P08631)",cell-free assay,competition with immobilised ligand,100
"NEK3 (Homo sapiens, UniProt P51956)",cell-free assay,competition with immobilised ligand,60
"MAP3K13 (Homo sapiens, UniProt O43283)",binding,competition with immobilised ligand,0
"SRPK1 (Homo sapiens, UniProt Q96SB4)",cell-free assay,competition with immobilised ligand,17
"EGFR (Homo sapiens, UniProt P00533, del746-750)",cell-free assay,competition with immobilised ligand,44
"MAP4K2 (Homo sapiens, UniProt Q12851)",cell-free assay,competition with immobilised ligand,39
"MET (Homo sapiens, UniProt P08581, M1250T)",cell-free assay,competition with immobilised ligand,6.8
"EGFR (Homo sapiens, UniProt P00533, L858R)",cell-free assay,competition with immobilised ligand,73
"STK10 (Homo sapiens, UniProt O94804)",cell-free assay,competition with immobilised ligand,100
"MYLK4 (Homo sapiens, UniProt Q86YV6)",cell-free assay,competition with immobilised ligand,35
"NEK5 (Homo sapiens, UniProt Q6P3R8)",cell-free assay,competition with immobilised ligand,63
"PIK3CA (Homo sapiens, UniProt P42336, E542K)",cell-free assay,competition with immobilised ligand,100
"CSNK2A2 (Homo sapiens, UniProt P19784)",cell-free assay,competition with immobilised ligand,6.7
"PIK3CA (Homo sapiens, UniProt P42336, Q546K)",cell-free assay,competition with immobilised ligand,93
"Ribosomal protein S6 kinase alpha-2, N-terminal kinase domain (RPS6KA2, Homo sapiens, UniProt Q15349)",cell-free assay,competition with immobilised ligand,57
"MAP2K4 (Homo sapiens, UniProt P45985)",cell-free assay,competition with immobilised ligand,23

# Set 4 — mode: inhibitor
# SMILES: Cc1nc(Nc2ncc(C(=O)Nc3c(C)cccc3Cl)s2)cc(N2CCN(CCO)CC2)n1
target,tested at,inhibition [%]
"ZAP70 (Homo sapiens, UniProt P43403)",10 µM,< 50
"NEK6 (Homo sapiens, UniProt Q9HC98)",10 µM,< 50
"RIOK1 (Homo sapiens, UniProt Q9BRS2)",10 µM,< 50
"MERTK (Homo sapiens, UniProt Q12866)",10 µM,< 50
"MAP3K11 (Homo sapiens, UniProt Q16584)",10 µM,< 50
"MAPK13 (Homo sapiens, UniProt O15264)",10 µM,< 50
"PRKCH (Homo sapiens, UniProt P24723)",10 µM,< 50
"DMPK (Homo sapiens, UniProt Q09013)",10 µM,94
"ALK (Homo sapiens, UniProt Q9UM73)",1 µM,< 50
"MAPK14 (Homo sapiens, UniProt Q16539)",10 µM,100
"CSNK1G2 (Homo sapiens, UniProt P78368)",1 µM,< 50
"DDR1 (Homo sapiens, UniProt Q08345)",10 µM,100

# Repeated from above (set 1):
target,remaining activity [%]
"FLT1 (Homo sapiens, UniProt P17948)",89.7
"MAP3K20 (Homo sapiens, UniProt Q9NYL2)",104
"SIK2 (Homo sapiens, UniProt Q9H0K1)",97.6
"EPHA6 (Homo sapiens, UniProt Q9UF33)",88
"Cyclin-dependent kinase 2, with cyclin E (CDK2, Homo sapiens, UniProt P24941)",92.1
"SRPK1 (Homo sapiens, UniProt Q96SB4)",105
"CLK1 (Homo sapiens, UniProt P49759)",99.3
"PAK6 (Homo sapiens, UniProt Q9NQU5)",94.5
"EPHA2 (Homo sapiens, UniProt P29317)",99
"MUSK (Homo sapiens, UniProt O15146)",79.8
"TEC (Homo sapiens, UniProt P42680)",97.8
"CSNK1E (Homo sapiens, UniProt P49674)",97.4
